Results of several laboratories.
Protocols differ between the studies behind these lines. Values joined by “and” are separate records of one study, mostly repeats; a detail may differ. ± gives the spread as reported.

Structure (SMILES) | cell line | test | setting | scale | EC50
N#Cc1nn(-c2c(Cl)cc(C(F)(F)F)cc2Cl)c(N)c1[S+]([O-])C(F)(F)F (stereo not drawn) | Caco-2 | viability, MTT | 168 h |  | 21.6 ± 0.5 µM
CCCCCC(CC(=O)CCc1ccc(O)c(OC)c1)SC[C@H](NC(=O)CC[C@H](N)C(=O)O)C(=O)NCC(=O)O (stereo partly drawn) | Caco-2/BBe, 3D spheroids | cytotoxicity, ATP content | 11 days |  | 182 µM
NC(=O)CCl | SW480 expressing Rad51-EGFP | Rad51 nuclear foci | 24 h | reference: 10 µM camptothecin | 300 µM
CC[C@H](C)[C@H](NC(=O)[C@H](Cc1c[nH]c2ccccc12)NC(=O)[C@H](CCCCN)NC(=O)[C@@H](NC(=O)[C@H](CC(C)C)NC(=O)[C@H](CCCCN)NC(=O)CNC(=O)[C@@H](NC(=O)[C@@H](NC(=O)[C@H](CO)NC(=O)[C@@H](NC(=O)[C@@H](NC(=O)[C@H](CCCCN)NC(=O)[C@H](CCC(N)=O)NC(=O)[C@H](C)NC(=O)[C@H](CCSC)NC=O)[C@@H](C)CC)[C@@H](C)CC)[C@@H](C)O)[C@@H](C)CC)C(C)C)C(=O)N[C@H](C(=O)N[C@@H](CCCCN)C(=O)N[C@H](C(=O)N[C@H](C(=O)N[C@@H](CC(N)=O)C(=O)N[C@@H](CCCCN)C(=O)N[C@@H](Cc1ccccc1)C(=O)N[C@H](C(=O)N[C@@H](CCCCN)C(=O)N[C@@H](CCCCN)C(=O)O)[C@@H](C)O)C(C)C)[C@@H](C)O)[C@@H](C)CC (racemic) | sheep erythrocytes | turbidity | pH 7.5 |  | 4.7 ± 1 µM
O=C(NC(=O)c1c(F)cccc1F)Nc1cc(Cl)c(F)c(Cl)c1F | Caco-2 | viability, MTT | 72 h |  | 571 ± 51 µM
CC[C@H](C)[C@H](NC(=O)[C@H](CCCCN)NC(=O)[C@H](CC(C)C)NC(=O)[C@H](CC(C)C)NC(=O)[C@H](C)NC(=O)CNC(=O)[C@H](CC(C)C)NC(=O)[C@@H](N)Cc1ccccc1)C(=O)NCC(=O)N[C@@H](C)C(=O)N[C@@H](CCCCN)C(=O)N[C@@H](CC(C)C)C(=O)N[C@@H](CC(C)C)C(=O)N1CCC[C@H]1C(=O)N[C@@H](CO)C(=O)N[C@H](C(=O)N[C@H](C(=O)NCC(=O)N[C@@H](CC(C)C)C(=O)N[C@@H](Cc1ccccc1)C(=O)N[C@@H](CCCCN)C(=O)N[C@@H](CCCCN)C(=O)N[C@@H](CCCCN)C(=O)N[C@@H](CCC(N)=O)C(=O)N[C@@H](CCC(N)=O)C(=O)O)C(C)C)C(C)C | F11 cells | intracellular calcium, FLIPR | 0.1% BSA |  | 0.9 to 1.5 µM and 0.99 µM
CC[C@H](C)[C@H](NC(=O)[C@H](C)NC(=O)CNC(=O)[C@H](Cc1ccccc1)NC(=O)[C@H](CC(N)=O)NC(=O)[C@H](CC(N)=O)NC(=O)[C@H](CO)NC(=O)[C@H](CO)NC(=O)[C@H](Cc1c[nH]cn1)NC(=O)[C@@H](NC(=O)[C@H](CC(C)C)NC(=O)[C@H](Cc1ccccc1)NC(=O)[C@H](CC(N)=O)NC(=O)[C@H](C)NC(=O)[C@H](CC(C)C)NC(=O)[C@H](CCCNC(=N)N)NC(=O)[C@H](CCC(N)=O)NC(=O)[C@@H](NC(=O)[C@H](C)NC(=O)[C@@H]1CSSC[C@H](NC(=O)[C@@H](N)CCCCN)C(=O)N[C@@H](CC(N)=O)C(=O)N[C@@H]([C@@H](C)O)C(=O)N[C@@H](C)C(=O)N[C@@H]([C@@H](C)O)C(=O)N1)[C@@H](C)O)C(C)C)C(=O)N[C@@H](CC(C)C)C(=O)N[C@@H](CO)C(=O)N[C@@H](CO)C(=O)N[C@H](C(=O)N[C@@H](CC(N)=O)C(=O)N[C@H](C(=O)NCC(=O)N[C@@H](CO)C(=O)N[C@@H](CC(N)=O)C(=O)N[C@H](C(=O)N[C@@H](Cc1ccc(O)cc1)C(N)=O)[C@@H](C)O)C(C)C)[C@@H](C)O | INS-1 | cell viability, CellTiter-Glo | 24 h |  | 48.1 µM
CC1(C)[C@H](C(=O)O[C@H](C#N)c2cccc(Oc3ccccc3)c2)[C@@H]1C=C(Br)Br | Caco-2 | viability, MTT | 240 h |  | 112 ± 3.3 µM
O=c1c(O)c(-c2ccc(O)c(O)c2)oc2c1ccc1ccccc12 | HT-22 | cell survival, MTT | 24 h, in vitro ischemia, together with: iodoacetic acid 20 µM, 2 h |  | 0.088 µM

Some of these lines once more:
Structure (SMILES) | cell line | test | setting | scale | EC50
O=c1c(O)c(-c2ccc(O)c(O)c2)oc2c1ccc1ccccc12 | HT-22 | cell survival, MTT | 24 h, in vitro ischemia, together with: iodoacetic acid 20 µM, 2 h |  | 0.088 µM
